# Published values from different studies.
# Target: Procathepsin L (CTSL, Homo sapiens, UniProt P07711)
# Chain of UniProt P07711 (whole entry, looked up): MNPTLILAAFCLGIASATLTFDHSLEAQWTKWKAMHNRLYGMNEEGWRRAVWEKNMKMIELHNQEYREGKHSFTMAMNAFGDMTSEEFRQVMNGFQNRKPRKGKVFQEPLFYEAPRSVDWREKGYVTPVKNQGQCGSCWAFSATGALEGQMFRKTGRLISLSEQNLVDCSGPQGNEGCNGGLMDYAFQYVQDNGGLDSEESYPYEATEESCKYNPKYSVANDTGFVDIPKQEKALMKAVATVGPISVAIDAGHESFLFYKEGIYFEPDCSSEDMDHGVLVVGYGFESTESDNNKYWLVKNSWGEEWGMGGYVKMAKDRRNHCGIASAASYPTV
Compound,test,setting,how to read,endpoint,value
COc1ccc2c(c1NC(=O)OCc1ccc(NC(=O)C(CCCNC(N)=O)NC(=O)C(NC(=O)CCCCCN3C(=O)CC(SCC(NC(C)=O)C(=O)O)C3=O)C(C)C)cc1)CCC=C2c1cc(OC)c(OC)c(OC)c1 (mixture of isomers),"enzyme activity, substrate, HPLC","1.5 h, pH 5.5, 25 °C, human enzyme, with: CTSL 600 nM",,payload release,57%
CCCNC(=O)[C@H]1O[C@@H]1C(=O)N[C@H](C(=O)N1CCC[C@H]1C(=O)OCC1=C2C(C)=CC(C)=[N+]2[B-](C)(C)n2c(C)cc(C)c21)[C@@H](C)CC,inactivator,light,relative to: cathepsin B over CTSL,selectivity ratio,220
CS(C)(=O)=Nc1ccc(-c2ccc(-c3nc4cc(O[C@@H]5CO[C@H]6[C@@H]5OC[C@H]6O)[nH]c4cc3F)cc2)cc1,"enzyme activity, inhibitor",10 µM,,inhibition,24%
Oc1cccc(/C=N/C23CC4CC(CC(C4)C2)C3)c1,"enzyme activity, inhibitor","100 µM, with preincubation",,inhibition,4%
O=C(c1cccc(-n2cccc2)c1)N1CCCN(S(=O)(=O)c2ccc(F)cc2)CC1,FRET,,,Hill slope,1.2
Oc1ccccc1/C=N/C12CC3CC(CC(C3)C1)C2,"enzyme activity, inhibitor","100 µM, with preincubation",,inhibition,-14%
CC(C)C[C@H](NC(=O)[C@H]1O[C@@H]1C(=O)O)C(=O)NCCCCN=C(N)N,,,,Hill slope,-1.71
O=C(Oc1cncc(Cl)c1)c1cccc2[nH]ccc12,"enzyme activity, inhibitor",10 µM,,inhibition,2%
Oc1ccc(/C=N/C23CC4CC(CC(C4)C2)C3)cc1,"enzyme activity, inhibitor","100 µM, with preincubation",,inhibition,-51%

# For quick reference, copied from above:
Compound,test,setting,how to read,endpoint,value
CCCNC(=O)[C@H]1O[C@@H]1C(=O)N[C@H](C(=O)N1CCC[C@H]1C(=O)OCC1=C2C(C)=CC(C)=[N+]2[B-](C)(C)n2c(C)cc(C)c21)[C@@H](C)CC,inactivator,light,relative to: cathepsin B over CTSL,selectivity ratio,220
